Measurements of several laboratories.
Numbered parts are unrelated; each lists some results of a single study.

Block 1
Target: RING finger protein unkempt homolog, zinc fingers 1-6, SBP tag (UNK, Homo sapiens, UniProt Q9C0B0, residues 30-357)
UniProt Q9C0B0, sequence (30-357, looked up): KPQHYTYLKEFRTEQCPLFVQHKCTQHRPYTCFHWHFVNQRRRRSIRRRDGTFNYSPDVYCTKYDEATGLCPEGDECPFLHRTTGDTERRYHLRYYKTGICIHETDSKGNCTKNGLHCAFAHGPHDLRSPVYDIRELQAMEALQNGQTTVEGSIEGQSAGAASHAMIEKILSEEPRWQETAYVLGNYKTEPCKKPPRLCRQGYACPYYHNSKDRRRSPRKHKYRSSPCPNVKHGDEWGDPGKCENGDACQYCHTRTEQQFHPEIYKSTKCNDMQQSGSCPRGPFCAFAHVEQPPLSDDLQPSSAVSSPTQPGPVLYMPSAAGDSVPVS
Method: RNA Bind-n-Seq
Form: RNA
Matrix: in vitro
Tested at: 100 nM
Notes: RNA with constant flanks, vertebrate orthologous sites, ends assumed
Baseline: input RNA pool
Reading: higher = stronger binding
Strand | bound/input enrichment [ratio]
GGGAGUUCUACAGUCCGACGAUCCUACUCCUGCUCCAGCAGGGGCGUGGGGCCGAAGCAUCCACCAGCGCUGCAAGGGGUCCACGGUAUUUUUUUUUUGGCUGCCUCAGUCCCCAGAGCCUUCAAGCAACAGUGGCGGUAGAUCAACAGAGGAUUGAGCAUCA | 0.555
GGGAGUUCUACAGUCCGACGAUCAGUGGACGCAGCAUAGAAACAUCCAAGGUACCGACUGCAGCUUUAGAUACUUCAUUAGUAUGGAAGUCACAGUUCUCUAUGUGAGCAUACAUAUCUUUAAGUAAACUACAUCUUUAACUUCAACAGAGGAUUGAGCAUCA | 0.397
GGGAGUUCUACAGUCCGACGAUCGUCCCCUGGGCCGGGACAGACUUUUUUUUUAAAUGUCUUGAAACCUAAACUCUGUGCUUGUAGAAGACUGUAACCUUUUUGUCUUUUUUUUUUUUUUUUAAAAAACCAACAACCUCCACCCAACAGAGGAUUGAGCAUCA | 0.786
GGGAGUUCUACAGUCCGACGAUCACUGGCCGCGGGGCGAGCUCCAGAGAGCUGCUGGCUGCUCGUCGGGUUAUGACCUUGACGUGAUAGGUAGGUUCGCGUGUUUUUUAAUUUAAAGAUGUUAAGACUUAAUUCACUAAAAUUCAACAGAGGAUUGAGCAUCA | 0.327
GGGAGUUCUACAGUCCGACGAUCCGAGUCUUCCACUUAGGGUCGGCCUCAAAUUUAUAGGAGUUAUGACAAUUGUAUAUCUACUUAGGUUGAGUUUGAUAUUUUUUUAUUCGCCUGUAAAUAAAGAUGGCAUCUUCUAUAUUACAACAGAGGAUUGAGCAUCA | 0.336
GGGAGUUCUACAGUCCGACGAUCCAGCUGACUCACUCAUUGGGAGAGCUGCACAUAUAGCAGUUCUUGAUUCAGAAAUAUUUUUAGAGAAAUUCUUUCUGGUUGCUGCCCUCAAAUAUUUCCAGUAGUAUAAAACAUUGUUAACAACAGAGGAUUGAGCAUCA | 1.04
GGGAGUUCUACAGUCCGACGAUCGGGCGGCCCGUGGGGGAAUUCCCUGCCUUGGCCUUACCUCCCCUUCCUGCCACUUGCCCCUAGUUAUUUUUUUUUUUUUUUUUACCACCAUGUGAUUAAGGUCGGCGCUGCCUCCCCCGACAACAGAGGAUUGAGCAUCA | 10.7
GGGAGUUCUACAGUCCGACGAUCGGGCUGUGUAGAGUAGGGCCCUGUUCUCCUUAGGAUGUUGCUUCUUGAUUUUUUUUUUUUUAGGGGUGGGUCAGGGUUGUGACACACCAGCCCAGGUGAGAGCUGCUGCGGGUCACCUCACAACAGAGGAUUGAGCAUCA | 1.53

Block 2
Target: Centromere-binding protein 1, full length, N-terminal tag (CBF1, Saccharomyces cerevisiae, UniProt P17106, residues 1-351)
UniProt P17106, sequence (whole entry, looked up): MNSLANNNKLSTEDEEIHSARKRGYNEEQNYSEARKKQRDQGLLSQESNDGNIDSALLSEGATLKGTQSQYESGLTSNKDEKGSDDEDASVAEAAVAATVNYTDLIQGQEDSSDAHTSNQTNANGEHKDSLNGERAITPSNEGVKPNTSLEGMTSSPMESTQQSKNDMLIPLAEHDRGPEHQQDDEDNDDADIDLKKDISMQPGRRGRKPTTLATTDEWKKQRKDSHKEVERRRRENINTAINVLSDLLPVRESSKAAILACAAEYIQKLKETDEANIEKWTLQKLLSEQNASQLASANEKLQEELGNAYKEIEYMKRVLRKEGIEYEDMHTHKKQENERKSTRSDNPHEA
Method: protein-binding microarray
Form: double-stranded DNA, one strand shown
Matrix: in vitro
Tested at: 0.8 µM
Notes: whole 60-bp probe, no competitor
Reading: higher = stronger binding
Strand | fluorescence intensity [a.u.]
GAAAATACGTATCATCATATGATTTCCCCCCTGTAGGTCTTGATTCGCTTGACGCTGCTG | 618
CCTAACTACTATATCATCACCACATAGCTTCGTACAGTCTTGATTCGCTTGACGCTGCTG | 531
TGTACGAAGCTATATTAGCCATCTATAGTAGTTAGGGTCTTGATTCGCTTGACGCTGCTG | 507
TGTACGAAGCTATCGCATGTTCTTATAGTAGTTAGGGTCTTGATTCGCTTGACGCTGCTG | 537
GAATTACATCGTGATCACGTTTCTTTTTTCGTTTAGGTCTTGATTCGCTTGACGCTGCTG | 7160
CTAGGTGACAAAGGTGATGCAATTACTGACACATTCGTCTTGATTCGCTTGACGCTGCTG | 555
GAAGAAAACGCATATCAACTGATATATATACACTAGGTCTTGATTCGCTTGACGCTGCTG | 556
GAATTGGAAAAATGTCACGCGTAAAAATTAGACTAGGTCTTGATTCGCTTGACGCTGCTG | 1360
TGTACGAAGCTATTGCAGGTGAATATAGTAGTTAGGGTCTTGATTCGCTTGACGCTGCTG | 535
CCTAACTACTATAGCCACGTGGGATAGCTTCGTACAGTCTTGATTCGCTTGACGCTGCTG | 4480
GAAATCTGTGCCCATGTGATCTGTACCTTTTTTTAGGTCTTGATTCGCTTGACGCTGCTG | 3070
CTATTTATTTACTGTCACCTTGATGAGCGACTATTCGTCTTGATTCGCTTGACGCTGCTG | 561
GAATATAAACACGATCACGTTTCACTCTTGAAATAGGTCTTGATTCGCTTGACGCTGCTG | 2110
CTAATTATAGAGAGTCACGCTGAACACGCGGCGTTCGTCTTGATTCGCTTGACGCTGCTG | 856
GAACATTAAAAGCCGCATGTGGCATCCTGAATTTAGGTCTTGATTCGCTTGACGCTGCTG | 646
GAACTAGGCGTTTGTCACCTTTCATCCGTGCCGTAGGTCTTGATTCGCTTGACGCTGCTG | 517
TGTACGAAGCTATGAGATGTGACTATAGTAGTTAGGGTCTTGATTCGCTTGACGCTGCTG | 537
GAAAGCCTTTGAATGATCGTGCTGACCGTAATTTAGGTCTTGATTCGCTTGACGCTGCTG | 581

Block 3
Target: Histone acetyltransferase KAT6A, winged helix 1, GST fusion (KAT6A, Homo sapiens, UniProt Q92794, residues 1-85)
Method: protein binding microarray
Form: double-stranded DNA, one strand shown
Matrix: in vitro
Tested at: not given
Notes: 8-mer, flanks averaged, mean of 2 arrays, mostly near background
Baseline: not given
Reading: higher = stronger binding
Target sequence (chain): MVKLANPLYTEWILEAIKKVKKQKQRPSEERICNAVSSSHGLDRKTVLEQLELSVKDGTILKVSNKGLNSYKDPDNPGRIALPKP
Strand | E-score
AAACGGTC | 0.233
GGTCCCCA | -0.0402
CCTGGAAG | -0.233
ATACAGTA | -0.0134
CACCCTAG | -0.341
AGCCGCCA | 0.282
CGCGACAG | 0.225
GGACCGAA | -0.205
GCTGTTAC | 0.17
GACCAACA | -0.192
GATTAAGA | -0.11
AGATGTGA | -0.142
GCTTCCTA | -0.0212
AAGTGTTG | -0.192
ATAGGTTG | -0.2
CGACTCGC | 0.0708
CATGGCAC | 0.0634
CATGACCG | 0.127
CAAAGGTC | -0.13

Block 4
Target: RNA binding protein fox-1 homolog 2, RRM domain, GST-SBP tag (RBFOX2, Homo sapiens, UniProt O43251-10, residues 100-194)
Method: RNA Bind-n-Seq
Form: RNA
Matrix: in vitro
Tested at: 365 nM
Notes: natural RNA segment, single round, ends assumed
Baseline: no-protein control
Reading: higher = stronger binding
Strand | RBNS enrichment (R)
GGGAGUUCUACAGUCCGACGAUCUUAAUGUUUCUUAGAGCCAAGUGUCUUUUAAACAUUAUUUUUUAUUUCUGAUUUCAUAAUUCAGAACUAAAUUUUUCAUAGAAGUGUUGAGCCAUGCUACAGUUAGUCUUUGGAAUUCUCGGGUGCCAA | 0.43
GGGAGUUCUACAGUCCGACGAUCGGCAGCCGCCAGCCAAAAUGAUGCCAUUGCCUGAGCUGACAGCCAAGCCCUUCUGUGGGUCACCUUUCUCCUCACCCAGCCCCUUGCUCUUCCCUUUUGAAAGGCCCGUGUGGAAUUCUCGGGUGCCAA | 0.44
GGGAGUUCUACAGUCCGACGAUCUCAGCCUACAUUCAACAAACGCCUCUUGAAUGUCUAUGAUUCCCCCAGACACAUGCUGACAGACACGAGGGAAGCAAGACAGAUUCUUUCUCCACUGUUAAACUCUGGGGUGGAAUUCUCGGGUGCCAA | 0.577
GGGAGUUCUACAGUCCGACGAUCCUGCCACAGGAUUUGCUAAUGUCUGAUGAUCAUGUUCACAGAGAACAUGGGUGAUUACUUGCAGCCAUCCCAGGUGUUUUAGUUUUGCCAAGCUGACUGUGGUAUGUAGCUGGAAUUCUCGGGUGCCAA | 0.526
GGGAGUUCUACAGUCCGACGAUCAUCACAGGUGAUUCACACGUACACACAUCCACACCCACACGUGCAGCCUGAAGUGACGUCCACAGAACCCGCCCUUGUCUUUGUACAUCGUAUGUACACUGCAAUCAUUUUGGAAUUCUCGGGUGCCAA | 0.412
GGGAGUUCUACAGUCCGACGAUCAGAUUUUUUCUGGUCCAUUUCCCAUUUCCUUUUCUUCCCUGACCCCCAUACCCUCACCCUUAAAAUUCUCCUGUAACUCAACUAACAAAAUCAAGCCUGAUUCAAAACAUUGGAAUUCUCGGGUGCCAA | 1.18
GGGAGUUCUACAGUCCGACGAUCCUUUUGAAGAGGUUUCCAUUUUUAUUUAAAUUGCUAAUGGAUCAGAGAACAAUUGUUUAUUUUUUCUCUUUGGUUUUAGAUAUUAAUAAUAACAUUACUGGAAUUUUUUUUGGAAUUCUCGGGUGCCAA | 0.887
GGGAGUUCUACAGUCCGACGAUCUGUCACCUGGAGAUGCCCUCUAUUGUGGCUUGGUUGGGCUUGUGUUUGAAAUGCUUUACAAAGGAAAACUGCAUGCCACAUGAGAAAACUUCAAAGUACACUUGCAAUGCUGGAAUUCUCGGGUGCCAA | 6.96
